Measured values pooled from the literature.
Protocols differ between the studies behind these lines. Numbers after ± are the reported error.
Chain of UniProt P11388 (whole entry, looked up): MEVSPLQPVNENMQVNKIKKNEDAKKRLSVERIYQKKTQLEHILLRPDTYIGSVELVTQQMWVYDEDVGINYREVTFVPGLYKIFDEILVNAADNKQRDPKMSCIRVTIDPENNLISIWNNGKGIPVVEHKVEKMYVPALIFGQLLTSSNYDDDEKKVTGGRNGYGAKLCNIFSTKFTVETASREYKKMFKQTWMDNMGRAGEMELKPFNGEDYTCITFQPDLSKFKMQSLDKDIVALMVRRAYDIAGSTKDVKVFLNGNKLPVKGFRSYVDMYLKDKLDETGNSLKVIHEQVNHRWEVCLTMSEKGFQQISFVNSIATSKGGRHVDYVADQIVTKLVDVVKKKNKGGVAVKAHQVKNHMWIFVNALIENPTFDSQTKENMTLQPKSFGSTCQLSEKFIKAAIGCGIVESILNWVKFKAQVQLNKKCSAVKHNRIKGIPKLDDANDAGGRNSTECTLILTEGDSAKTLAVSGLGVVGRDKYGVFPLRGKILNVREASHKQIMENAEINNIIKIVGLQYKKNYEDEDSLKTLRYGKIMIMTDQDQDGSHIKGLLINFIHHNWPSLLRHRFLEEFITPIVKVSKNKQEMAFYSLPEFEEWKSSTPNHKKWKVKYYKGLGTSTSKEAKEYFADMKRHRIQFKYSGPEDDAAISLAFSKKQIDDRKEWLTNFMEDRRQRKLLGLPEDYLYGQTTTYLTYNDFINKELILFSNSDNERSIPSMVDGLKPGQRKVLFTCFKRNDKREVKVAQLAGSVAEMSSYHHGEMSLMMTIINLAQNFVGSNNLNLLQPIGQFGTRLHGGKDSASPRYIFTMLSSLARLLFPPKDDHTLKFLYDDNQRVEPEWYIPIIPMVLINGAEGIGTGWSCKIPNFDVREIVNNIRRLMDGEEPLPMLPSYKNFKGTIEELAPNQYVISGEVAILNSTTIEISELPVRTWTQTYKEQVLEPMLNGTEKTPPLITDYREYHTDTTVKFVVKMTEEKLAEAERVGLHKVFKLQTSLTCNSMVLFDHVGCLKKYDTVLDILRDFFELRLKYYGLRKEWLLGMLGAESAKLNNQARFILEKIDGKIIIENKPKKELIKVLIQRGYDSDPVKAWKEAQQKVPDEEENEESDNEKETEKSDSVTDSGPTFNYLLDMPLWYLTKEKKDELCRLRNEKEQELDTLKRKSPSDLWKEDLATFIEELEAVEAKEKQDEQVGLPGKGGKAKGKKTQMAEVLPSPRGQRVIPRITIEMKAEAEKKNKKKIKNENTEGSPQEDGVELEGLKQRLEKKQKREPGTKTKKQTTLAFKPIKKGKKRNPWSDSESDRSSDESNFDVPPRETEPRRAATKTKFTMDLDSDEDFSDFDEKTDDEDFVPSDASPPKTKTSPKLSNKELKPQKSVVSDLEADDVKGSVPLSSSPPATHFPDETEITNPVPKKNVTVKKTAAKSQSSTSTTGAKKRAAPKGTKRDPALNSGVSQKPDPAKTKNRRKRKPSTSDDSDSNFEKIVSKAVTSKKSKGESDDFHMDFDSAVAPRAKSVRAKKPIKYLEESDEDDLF

Molecule | target or system | assay | test system | conditions | how to read | endpoint | value
CO/N=C(\C(=O)N[C@@H]1C(=O)N2C(C(=O)O)=C(COC(C)=O)CS[C@H]12)c1csc(N)n1 | Pseudomonas aeruginosa |  | clinical isolate RKI-No_480/15 |  |  | MIC | > 16 µg/mL
CC(C)C[C@H](NC(=O)OCc1ccccc1)C(=O)N[C@H](C=O)C[C@@H]1CCCNC1=O | SARS-CoV-2 | viral replication, RT-qPCR viral load | Caco-2 | 72 h |  | EC50 | 0.02 ± 0.02 µM
COc1ccc([C@@H](C)NC(=O)c2cc(N)ccc2C)c2ccccc12 | SARS-CoV-2 | viral replication | Vero E6 |  |  | EC50 | 36 µM
Cc1c(S(=O)(=O)N2CCc3c(cnn3C)C2)cc(C(=O)NCc2cccnc2N2CCCC2)n1C | SARS-CoV-2 | viral replication | Huh7.5 cells, WA1/2020 |  |  | EC50 | 4.6 µM
N#CCC1CCN(c2nc(Nc3ccc(N4CCC(O)CC4)cc3)c3c(=O)[nH]ncc3n2)CC1 |  | Olink multiplex, measured: CDCP1 | human, serum | 40 mg, day 29, unit not given | relative to: placebo | serum level change | -1.33
OC[C@H]1O[C@@H](O[C@@H]2[C@@H](O)[C@H](O[C@@H]3[C@@H](O)[C@H](O[C@@H]4[C@@H](O)[C@H](O[C@@H]5[C@@H](O)[C@H](O[C@H]6[C@H](O)[C@@H](CO)OC(O)[C@@H]6O)O[C@H](CO)[C@H]5O)O[C@H](CO)[C@H]4O)O[C@H](CO)[C@H]3O)O[C@H](CO)[C@H]2O)[C@H](O)[C@@H](O)[C@@H]1O (stereo partly shown) | Bacteroides thetaiotaomicron | binding, ITC |  | pH 7.0, 25 °C, middle domain |  | ΔH | -39.4 kcal/mol
COC(=O)Nc1c(N)nc(-c2nn(Cc3ccccc3F)c3ncc(F)cc23)nc1N |  |  | healthy white men | dose not given, day 13, 312 h, LS mean difference, together with: sildenafil 25 mg | relative to: placebo | seated HR maximum increase | -0.07 bpm
Cc1nc(C(CN)NC(=O)c2ccc(-c3ccc4c(c3)OCO4)[nH]2)sc1CO (stereo not shown) | human immunodeficiency virus 1 | viral replication | PBMC | 168 h |  | IC50 | 3.5 ± 0.9 µM
CC(C)C[C@H](NC(=O)OCc1ccccc1)C(=O)N[C@@H](CC1CCNC1=O)C(O)S(=O)(=O)O (stereo partly shown) | porcine epidemic diarrhea virus | viral replication, RT-qPCR, measured: PEDV N gene | Vero-E6 |  |  | EC50 | 1.09 ± 0.25 µM
COc1cc([C@@H]2c3cc4c(cc3[C@@H](O[C@@H]3O[C@@H]5CO[C@@H](C)O[C@H]5[C@H](O)[C@H]3O)[C@H]3COC(=O)[C@H]23)OCO4)cc(OC)c1O | DNA topoisomerase 2-alpha (TOP2A, Homo sapiens, UniProt P11388) | DNA cleavage |  | 12.5 µM |  | mean linear DNA | 13.2%
C[C@H](NC(=O)[C@@H](c1cccnc1)N(C(=O)C(Cl)Cl)c1ccc(-c2ccccc2)cc1)c1ccc(Br)cc1 | SARS-CoV-2 | viral replication | Caco-2 hACE2 |  |  | EC50 | 3.24 µM
COc1ccccc1CNC(=O)c1cc(S(=O)(=O)N2CCn3nccc3C2)c(C)n1C | SARS-CoV-2 | viral replication | Huh7.5 cells, WA1/2020 |  |  | EC50 | 9 µM
OC[C@H]1O[C@@H](O[C@@H]2[C@@H](O)[C@H](O[C@@H]3[C@@H](O)[C@H](O[C@H]4[C@H](O)[C@@H](CO)OC(O)[C@@H]4O)O[C@H](CO)[C@H]3O)O[C@H](CO)[C@H]2O)[C@H](O)[C@@H](O)[C@@H]1O (stereo partly shown) | Bacteroides thetaiotaomicron | binding, ITC |  | pH 7.0, 25 °C, distal domain |  | ΔH | -20.3 kcal/mol
Cc1cnc2nc(C)c(C(=O)NCc3ccccc3)n2c1 | Mycobacterium tuberculosis | growth (>90% inhibition) | H37Rv, glycerol-alanine-salts medium |  |  | MIC | 1.3 µM
CC1COc2ccccc2N1C(=O)C(Cl)Cl (stereo not shown) | glutathione S-transferase |  | male rhesus monkey liver cytosol | 5 µM, pH 7.4, together with: GSH |  | scaled intrinsic clearance | 120 mL/min/g liver
Cc1c(S(=O)(=O)N2CCc3n[nH]cc3C2)cc(C(=O)NCc2c(F)ccc3cnn(C)c23)n1C | SARS-CoV-2 | viral replication | Huh7.5 cells, WA1/2020 |  |  | EC50 | 0.0087 µM
hexadimethrine bromide | feline infectious peritonitis virus | plaque | fcwf-4, type I strain KU-2 | concentration not given |  | infection efficiency | increased
Fc1ccccc1Cc1nc(-c2nc(C(F)(F)F)n[nH]2)cn2ccnc12 |  |  | healthy human subjects, both sexes | oral, 10 mg, fasted |  | subjects with skin TEAEs | 7.1%
C[C@H]1O[C@@H](O[C@H]2[C@@H](O)C[C@H](O[C@H]3[C@@H](O)C[C@H](O[C@H]4CC[C@@]5(C)[C@H](CC[C@@H]6[C@@H]5CC[C@]5(C)[C@@H](C7=CC(=O)OC7)CC[C@]65O)C4)O[C@@H]3C)O[C@@H]2C)C[C@H](O)[C@@H]1O | human adenovirus C5 |  | A549 | concentration not given, 72 h | relative to: DMSO control | minimum progeny production | 35%
Cc1c(S(=O)(=O)N2CCC(C)CC2)cc(C(=O)NCc2cccnc2N2CCCC2)n1C | SARS-CoV-2 | viral replication | Huh7.5 cells, WA1/2020 |  |  | EC50 | 5.53 µM
CCCC(=O)OCSc1ccccc1C(=O)NCCn1cc(C(=O)NCc2cccc(C)n2)c(=O)c2cc3c(cc21)OC(F)(F)O3 | HIV-1 | viral replication, reverse transcriptase | human PBMC, 92HT599 (CXCR4-tropic) |  |  | EC50 | 6.52 ± 2.1 µM
OC[C@H]1O[C@@H](O[C@@H]2[C@@H](O)[C@H](O[C@H]3[C@H](O)[C@@H](CO)OC(O)[C@@H]3O)O[C@H](CO)[C@H]2O)[C@H](O)[C@@H](O)[C@@H]1O (stereo partly shown) | Bacteroides thetaiotaomicron | binding, ITC |  | pH 7.0, 25 °C, distal domain |  | -TΔS | -14.7 kcal/mol
COC(=O)Nc1c(N)nc(-c2nn(Cc3ccccc3F)c3ncc(F)cc23)nc1N |  |  | human, male, urine and feces | oral, 5 mg, 336 h, 14C-labelled, mean | relative to: dose | total radioactivity recovered | 98.3%
[Mg+2] | uncharacterized protein (Bacteroides thetaiotaomicron, UniProt Q8A4G9) | phosphatase activity, activator, phosphate release |  | 5 mM, EDTA-treated enzyme, together with: substrate 25 mM | relative to: activity with this ion | relative specific activity | 1
OC[C@H]1O[C@@H](O[C@@H]2[C@@H](O)[C@H](O[C@@H]3[C@@H](O)[C@H](O[C@@H]4[C@@H](O)[C@H](O[C@H]5[C@H](O)[C@@H](CO)OC(O)[C@@H]5O)O[C@H](CO)[C@H]4O)O[C@H](CO)[C@H]3O)O[C@H](CO)[C@H]2O)[C@H](O)[C@@H](O)[C@@H]1O (stereo partly shown) | Bacteroides thetaiotaomicron | binding, ITC |  | pH 7.0, 25 °C, distal domain |  | ΔH | -19.4 kcal/mol
Cc1c(S(=O)(=O)N2CCn3nccc3C2)cc(C(=O)NCc2cccnc2N2CCCC2)n1C | SARS-CoV-2 | viral replication | Huh7.5 cells, WA1/2020 |  |  | EC50 | 3.3 µM
O=P(O)(O)O[C@H]1O[C@H](CO)[C@@H](O)[C@H](O)[C@H]1O | uncharacterized protein (Bacteroides thetaiotaomicron, UniProt Q8A183) | activator, phosphate release |  | concentration not given, together with: Mg2+ |  | phosphatase activity | inactive
CCn1c(=O)c(-c2cc(NC(=O)Nc3ccccc3)c(F)cc2Br)cc2cnc(NC)cc21 |  | measured: injury and poisoning | healthy, matched to moderate impairment | 50 mg single dose |  | patients with grade 3+ TEAE | 0%
